# Results collected from several papers.
# Lines come from different studies, so protocols differ. Several values in a cell are separate wells, animals, samples, runs or records. ± gives the spread as reported.
SMILES,cell line,test,system,setting,scale,measurement,result
CC1(C)COc2ccc(F)cc2CN2c3nc4c(cnn4cc3OC[C@H]2C(F)F)C(=O)N1,NCI-H2228 (EML4-ALK variant 3),cell viability,,,,Emax,30.1%
CC1(C)CCC(CN2CCN(c3ccc(C(=O)NS(=O)(=O)c4ccc(NCC5CCOCC5)c([N+](=O)[O-])c4)c(Oc4cnc5[nH]ccc5c4)c3)CC2)=C(c2ccc(Cl)cc2)C1,THP-1,"annexin V/PI flow cytometry, refers to: annexin V+/PI-",,"0.2 µM, 24 h",,early apoptotic cells,3.4%
Cn1cc(-c2ccc(-c3cncc(Cl)c3N3CCC4(CCNC4=O)CC3)cc2)cn1,COLO 205,"gene expression, microarray, refers to: ZNF548 mRNA",,"concentration not given, 6 h",relative to: untreated cells,log2 fold change,1.76
CN1CCN(c2ccc3[nH]c(-c4ccc5[nH]c(-c6ccc(C(F)(F)F)cc6)nc5c4)nc3c2)CC1,SNB-75,SRB,,"10 µM, 48 h",,growth percent,29.6%
Cn1cc(Nc2nccc(-c3ccc4c(c3)CN(C3COC3)CC[C@H]4NC(=O)c3cn(C(C)(C)C)nn3)n2)cn1,human B cells,,,"100 nM, 64 h, stimulation-downregulated genes, added: CD40L, anti-IgM, IL-4",,number of upregulated genes,28
[Cl-].[Cl-].[Os+2].c1cnc2c(c1)ccc1cccnc12.c1cnc2c(c1)ccc1cccnc12.c1cnc2c(c1)ccc1cccnc12,SK-MEL-28,resazurin,,"normoxia, added: visible light",relative to: dark EC50 over light EC50,phototherapeutic index,4
CSCC[C@H](NC(=O)[C@H](Cc1ccc(OS(=O)(=O)O)cc1)NC(=O)[C@@H](N)CC(=O)O)C(=O)NCC(=O)N[C@@H](Cc1c[nH]c2ccccc12)C(=O)N[C@@H](CCSC)C(=O)N[C@@H](CC(=O)O)C(=O)N[C@@H](Cc1ccccc1)C(N)=O,HEK293T control virus,"agonist, GloSensor cAMP",,"0.64 nM, no receptor expressed",higher = more cAMP,cAMP accumulation,0.2 a.u.
NC1(c2ccc(-c3nc4ccn5c(=O)[nH]nc5c4cc3-c3ccccc3)cc2)CCC1,MDA-MB-468,"flow cytometry, PI staining",,"EC80 concentration, 72 h, DMSO 22.2",,cells in S phase,18.6%
Nc1cccc2c1C(=O)N(C1CCC(=O)NC1=O)C2=O (stereo not drawn),MM1.S,XTT,,3 µM,,viability,14% and 13% and 9%
CCn1cc(-c2cc(Cn3ccnc3)cc3c2CCN([C@H](c2cc(OC)ccn2)C2CC2)C3=O)c(C(F)(F)F)n1,PSN1,"cell growth, inhibitor",,120 h,,EC50,205 nM
Cc1ccc(C=NNC(=O)C2CC(=O)N(c3ccc(F)cc3F)C2)cc1 (stereo not drawn),PPC-1 and fibroblast spheroids,MTT,,"10 µM, day 8",,"viability reduction, up to",30%
CCOC(=O)c1nn(-c2cccc(Cl)c2)/c(=N/N=C(\C)c2ccc(NC(=O)c3ccccc3)cc2)s1,MCF7,MTT,,10 µM,,cytotoxicity,97.6%
Cc1ccc(CNC(=O)Cn2cc(CSc3nc4ccccc4[nH]3)nn2)cc1,MDA-MB-231,MTT,,250 ppm,,cytotoxicity,93.5%
Cc1c(C(=O)O)ccc2c3n(nc12)[C@@H]1[C@H](C3)N(CC2CC2)[C@@]2(C(=O)Nc3cc(Cl)ccc32)[C@H]1c1cccc(Cl)c1F,highly sensitive cancer cell lines,"cell viability, PRISM pooled screen",,median,,IC50,107 nM
CC(=O)c1nn(-c2ccc(Cl)cc2)/c(=N/N=C(\C)c2ccc(NC(=O)c3ccc(Cl)cc3)cc2)s1,HepG2,,,10 µM,,toxicity,92.6%
S=C([S][Au-][P+](CCCCCC[P+]([Au-][S]C(=S)n1cccn1)(c1ccccc1)c1ccccc1)(c1ccccc1)c1ccccc1)n1cccn1,MDA-MB-231/ATCC,"cell growth, NCI-60 screen",,breast cancer,,log TGI,> -4 log10 M
Cc1cc(Nc2ncc(Cl)c(Nc3ccccc3S(=O)(=O)C(C)C)n2)c(OC(C)C)cc1C1CCNCC1,CLB-BAR,"phosphoproteomics LC-MS/MS, refers to: RBM4 phosphorylation",,"200 nM, 60 min",relative to: untreated,log2 fold change,-2.13
COc1cnc2cccc(N3CCc4c(cc(Cn5ccnc5C)cc4-c4cn(C)nc4C(F)(F)F)C3=O)c2c1,SNU1079,cell growth,,120 h,,EC50,282 nM
CC(C)(C)c1cc(O)ccc1O,HepG2,"extracellular flux, refers to: oxygen consumption rate",,"1 h, distribution mode 2",,point of departure,16.2 µM
Nc1ncnc2nc(-c3ccc(N4CCOCC4)nc3)cc(-c3cccc(Br)c3)c12,activated T cells,,,"concentration not given, added: adenosine 100 µM",relative to: DMSO control,T cell proliferation,93.2% and 95% and 96.9%
C=Cc1c2[n-]c(c1C)/C=c1\[n-]/c(c(C)c1C=C)=C\c1[n-]c(c(CCC(=O)O)c1C)/C=c1\[n-]c(c(C)c1CCC(=O)O)=C2.[Sn+4],SH-SY5Y,"RNA-seq, refers to: EDN1 mRNA",,"5 µM, 5 h",relative to: untreated cells,fold change,5.68
O=C(/C=C/C=C/C=C/C1CCCCC1)NC1=C[C@@](O)(/C=C/C=C/C=C/C(=O)NC2=C(O)CCC2=O)[C@@H]2O[C@@H]2C1=O,jhom1,"cell growth, inhibitor, CellTiter-Glo luminescence",,78 h,relative to: day 0 cell count,GI50,> 30 µM
CC(C)(C)C(=O)Oc1ccc(S(=O)(=O)Nc2ccccc2C(=O)NCC(=O)O)cc1,human peripheral blood neutrophils,NET formation,,"500 µM, added: MPO-ANCA immune complex, C5a",,citrullinated histone H3 per neutrophil,10.2 and 7.79 and 6.34 and 7.48
Cc1ccc(Cn2cc(COc3cccc(Cc4cnc(NC(=O)CSc5nc(C)cc(C)n5)s4)c3)nn2)cc1,PC-3M-luc,"colony formation, colony forming",,10 µM,,inhibition,28 ± 7.6%
C=CC1=C(C)c2cc3[n-]c(cc4nc(cc5[n-]c(cc1n2)c(C)c5C=C)C(C)=C4CCC(=O)O)c(CCC(=O)O)c3C.[Zn+2],SH-SY5Y,"RNA-seq, refers to: FGF5 mRNA",,"5 µM, 5 h",relative to: untreated cells,fold change,2.69
C#C[C@@]1(O)[C@@H](CO)O[C@@H](n2ccc3c(N)ncnc32)[C@@H]1O,NCI60 panel,cell viability,,mean over panel,,LC50,-4.32 log M
Cc1n[nH]c2nc(-c3ccc(Cl)cc3)c3c(NC(=O)c4ccccc4)nnc-3n12,MDA-MB-231/ATCC,NCI60 SRB,,10 µM,,growth percent,94.3%
c1ccc2[nH]ccc2c1,HCT-8,"RNA-seq, refers to: NGFR",,concentration not given,,"mRNA level, LS mean",5.67 counts per million
Cc1nc(NC(=O)N2CCC[C@H]2C(N)=O)sc1-c1ccnc(C(C)(C)C(F)(F)F)c1,MDA-MB-453,resazurin growth rate inhibition,,72 h,,GR50,101 nM
O=S(=O)(O)O,human neutrophils,"anion exchange, substrate, trans-stimulated sulfate efflux",,external binding site,,Km,~14 mM
Cl.Cl.NCCNS(=O)(=O)c1ccc(Cl)c2ccncc12,SK-OV-3,ATP,2D monolayer culture,"10 µM, 4 days",relative to: untreated,relative cell number,119%
CCn1cc(-c2cc(Cn3ccoc3=N)cc3c2CCN([C@@H](C)c2cc(OC)ccn2)C3=O)c(C(F)(F)F)n1,KP2,cell growth,,120 h,,EC50,> 30000 nM
Nc1ncnc2c1ncn2[C@@H]1O[C@H](COP(=O)(O)O)[C@@H](O)[C@H]1O,MCF-10A,CellTiter-Glo,,concentration not given,"relative to: normalised, mean of replicates",viability,128%
CCCCCCCCCC(=O)Oc1c(C)c(O)c(C(=O)/C=C/c2ccccc2)c(OC)c1C,FaDu,SRB,,,relative to: normal over FaDu IC50,selectivity index,1.21
C[C@@H]1CN(C(=O)c2ccc(NC(=O)c3cc(O[C@H](C)c4c(Cl)ccc(F)c4Cl)c(N)nn3)cc2)C[C@H](C)N1,NCI-H2228 (EML4-ALK variant 3),cell viability,,,,Emax,27.6%
Cc1ccc(NC(=O)[C@H]2CCCN(C(=O)c3c(C)cccc3F)[C@H]2c2ccc(NC3CCCC3)cc2)cc1C(F)(F)F,human peripheral blood neutrophils,flow cytometry FSC/SSC,,"0.1 µM, added: C5a 100 ng/mL, MPO-ANCA immune complex",relative to: unstimulated neutrophils,neutrophil swelling,1.24 fold change and 1.47 fold change and 1.4 fold change and 1.2 fold change

# A few entries again:
SMILES,cell line,test,system,setting,scale,measurement,result
Nc1cccc2c1C(=O)N(C1CCC(=O)NC1=O)C2=O (stereo not drawn),MM1.S,XTT,,3 µM,,viability,14% and 13% and 9%
CCn1cc(-c2cc(Cn3ccnc3)cc3c2CCN([C@H](c2cc(OC)ccn2)C2CC2)C3=O)c(C(F)(F)F)n1,PSN1,"cell growth, inhibitor",,120 h,,EC50,205 nM
Cc1ccc(C=NNC(=O)C2CC(=O)N(c3ccc(F)cc3F)C2)cc1 (stereo not drawn),PPC-1 and fibroblast spheroids,MTT,,"10 µM, day 8",,"viability reduction, up to",30%
CCOC(=O)c1nn(-c2cccc(Cl)c2)/c(=N/N=C(\C)c2ccc(NC(=O)c3ccccc3)cc2)s1,MCF7,MTT,,10 µM,,cytotoxicity,97.6%
